Assay results pooled from the literature.
Parts stem from different laboratories: compare values within a part only. Positions count from the first letter of the parent shown.

Series 1 — target: CCNE1, cyclin fold, Cln2 fusion (human); method: yeast growth competition, sequencing; sample: yeast; setting: weak parent motif; reference: not given; reading: higher = stronger binding
Parent: ORC1 docking peptide (human); PRARKRLELGNLG
Change | normalised enrichment score
L7F | -0.013
L7I | 0.454
P1T | 0.0277
L12E | 0.323
A3V | -0.0777
L9M | 0.491
K5E | -0.066
R6K | 0.344
P1M | 0.0314
R2I | 1.43
A3L | -0.48
R6Y | 1.02
R4P | -0.0282
G10L | 1.04
R2W | 0.952
R2D | 0.501
N11A | -0.211
R6M | 0.978
K5A L7A | 0.192
K5W | 0.973
L9W | 0.761
E8Q | 0.822
L9Q | 0.403
L12K | 0.118
L12F | 0.663

Series 2 — method: DHFR PCA, deep sequencing; sample: yeast; added: (+)-ABA 0.39 µM; reference: wild-type fitted maximum; reading: higher = stronger binding
Target: ABI1, truncated, D143A, DHFR fusion (Arabidopsis thaliana)
Setting: methotrexate growth selection, single substitutions
Parent: PYL1, truncated, DHFR fusion (Arabidopsis thaliana); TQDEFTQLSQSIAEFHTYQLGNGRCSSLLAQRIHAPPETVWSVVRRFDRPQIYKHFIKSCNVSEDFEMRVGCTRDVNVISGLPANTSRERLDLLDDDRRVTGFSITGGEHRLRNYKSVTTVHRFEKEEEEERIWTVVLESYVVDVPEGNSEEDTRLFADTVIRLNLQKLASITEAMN; partner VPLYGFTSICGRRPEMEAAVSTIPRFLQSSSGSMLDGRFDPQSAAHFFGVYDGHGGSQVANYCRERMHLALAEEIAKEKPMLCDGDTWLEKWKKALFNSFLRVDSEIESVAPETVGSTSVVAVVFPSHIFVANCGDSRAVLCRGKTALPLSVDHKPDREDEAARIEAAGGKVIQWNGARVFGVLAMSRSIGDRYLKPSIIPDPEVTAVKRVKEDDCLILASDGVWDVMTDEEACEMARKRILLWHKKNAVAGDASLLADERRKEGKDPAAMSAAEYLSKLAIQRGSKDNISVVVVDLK
Change | relative binding score [%]
G71K | -1.99
Q2E | 51.4
R111Y | -5.64
T73R | 6.7
Q51P | -10.5
T6W | 36.2
T106M | 51.5
L94V | -0.621
L166I | 6.13
D159C | -4.19
Q167N | 21.6
I33Q | -4.25
P37Q | 18
G23E | 7.48

Series 3 — method: protein-binding microarray; form: double-stranded DNA, one strand shown; sample: in vitro; concentration: 2540 nM top; setting: 60-bp whole probe; added: salmon DNA 0.4 mg/ml; reference: random background probes; reading: higher = stronger binding; all sequences stand within: GCCTAGCAC … GTCTTGATTCGCTTGACGCTGCTG
Target: Interferon regulatory factor 3, full length, phosphomimetic (IRF3, Homo sapiens, UniProt Q14653, residues 1-427, S386D/S396D/S398D/S402D/T404D/S405D)
Construct (chain): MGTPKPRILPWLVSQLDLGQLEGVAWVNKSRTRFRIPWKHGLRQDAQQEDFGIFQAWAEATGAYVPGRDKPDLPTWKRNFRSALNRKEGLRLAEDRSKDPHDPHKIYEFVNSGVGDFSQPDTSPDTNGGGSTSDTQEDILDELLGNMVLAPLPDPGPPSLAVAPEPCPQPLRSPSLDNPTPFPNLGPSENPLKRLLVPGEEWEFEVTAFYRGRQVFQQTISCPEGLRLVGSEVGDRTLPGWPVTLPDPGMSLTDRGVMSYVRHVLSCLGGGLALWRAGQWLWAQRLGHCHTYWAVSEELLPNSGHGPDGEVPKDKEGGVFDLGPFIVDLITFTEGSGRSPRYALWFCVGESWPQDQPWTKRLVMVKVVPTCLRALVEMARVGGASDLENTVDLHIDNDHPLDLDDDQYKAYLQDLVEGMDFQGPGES
Oligonucleotide | fitted relative affinity [z-score]
TTAGATCTCAGTTTCGATAAGTGCTAG | 3.15
CTTACTTTATGTAGGAAGTCGTGCTAG | 0.803
TCAGCCCTCACCATCATACTGTGCTAG | -0.296
TTAAGTTTCCTACTGCTTTAGTGCTAG | 5.68
GACGGTTCCGGTTTCGGGACGTGCTAG | 6.1
TTAGGTATCGGGACTGGGTGAGTGCTA | 1.23
GACGGTCTCCGTCTCCTGACGTGCTAG | 1.89
TTAGGTATCGACTTTCGCTTAGTGCTA | 1.08
TTAGATTTCAGTCTGGATTAGTGCTAG | 1.05
GACGGTTTCCTCCTGCTGACGTGCTAG | 3.97
TTAGGTATCGGTTTCGATTAGTGCTAG | 7.86
GACGGTTTCTACACTGGGGACGTGCTA | 1.76
ACTTTTTTCTGATTGAATCTGTGCTAG | 1.94
GAAGGTTTCCTTTTCCTGACGTGCTAG | 10.5
TCAACCTTGAACTTCGGACTGTGCTAG | -0.372
TTCTCTTTCACTGCTGCCCTGTGCTAG | 2.27
GACGATCTCACTATCGAGACGTGCTAG | 0.856

Series 4 — method: RNAcompete; form: RNA; sample: in vitro; concentration: 20 nM; setting: 7-mer, probes averaged, single round; reference: mean of 7-mers; reading: higher = stronger binding
Target: PABPC1L2, full length, GST fusion (mouse, UniProt A0ABA7IW68)
Residues (chain): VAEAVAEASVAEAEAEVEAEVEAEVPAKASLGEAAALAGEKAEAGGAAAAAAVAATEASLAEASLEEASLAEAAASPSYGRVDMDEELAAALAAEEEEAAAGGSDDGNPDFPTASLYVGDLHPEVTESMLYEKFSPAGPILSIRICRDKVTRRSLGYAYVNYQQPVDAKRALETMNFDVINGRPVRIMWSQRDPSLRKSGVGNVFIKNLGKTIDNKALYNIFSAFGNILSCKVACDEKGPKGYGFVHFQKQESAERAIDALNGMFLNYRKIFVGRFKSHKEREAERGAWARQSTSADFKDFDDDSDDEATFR
Oligonucleotide | 7-mer Z-score
GCCCUAG | -0.322
GGCAGGA | 0.584
GACUGUC | -0.365
GAGCAUC | -0.15
CUCUAAC | -0.195
AUUAAAG | 0.8
ACCUGAC | -0.2
CUAUUUU | -0.351
GAAGGUU | -0.135
AAACUAC | 0.82
GUUCACG | -0.271
GCCUCCU | -0.318
AGGGAUA | 0.36
CCACUCU | -0.327
CUCUGAG | -0.264
CUUGCAU | -0.322

Series 5 — method: protein-binding microarray; form: double-stranded DNA, one strand shown; sample: in vitro; concentration: not given; reading: higher = stronger binding
Target: Protein C-ets-1 (ETS1, Homo sapiens, UniProt P14921, residues 1-441, full length assumed)
Sequence of UniProt P14921 (whole entry, looked up): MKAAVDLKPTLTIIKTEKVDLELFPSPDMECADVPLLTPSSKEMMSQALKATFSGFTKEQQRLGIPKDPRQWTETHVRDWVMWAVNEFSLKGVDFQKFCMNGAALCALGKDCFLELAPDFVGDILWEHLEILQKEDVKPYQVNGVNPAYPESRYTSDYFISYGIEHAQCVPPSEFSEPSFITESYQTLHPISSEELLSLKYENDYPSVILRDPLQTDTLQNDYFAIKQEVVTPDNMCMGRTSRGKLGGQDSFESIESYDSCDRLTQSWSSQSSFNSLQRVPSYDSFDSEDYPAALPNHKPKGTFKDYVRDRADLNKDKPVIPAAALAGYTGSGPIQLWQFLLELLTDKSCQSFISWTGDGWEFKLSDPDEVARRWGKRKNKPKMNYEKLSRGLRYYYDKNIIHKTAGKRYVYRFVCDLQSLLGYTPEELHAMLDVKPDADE
Setting: k-mer, scored over probes, only values ≥0.25
Oligonucleotide | E-score
GGGTAGGA | 0.271
CGAGGAAA | 0.272
CGGTATCC | 0.364
GGAAATCA | 0.381
ACCAGGAA | 0.344
CCTTCCTC | 0.363
AGACATCC | 0.397
ATTACCGG | 0.27
GGAAGTAC | 0.457
GAAACATC | 0.33
CCGGTAAC | 0.315
AGAGTTCC | 0.303
AGGAACTG | 0.293
GTAAAGGA | 0.252
GAAGCTTC | 0.311
GGAAACCC | 0.379
ATGTCCGG | 0.444
CAGGTTTC | 0.312
TGACGGAA | 0.335
GGATGCTA | 0.324
ATCACCGG | 0.295
ATCCGGTG | 0.481
AGAGGACG | 0.284
CCCGTCCG | 0.338
CAGATCCA | 0.308

Other studies, line by line
Substance | target | test | system | setting | scale | endpoint | result
PhoQ, residues 284 288 289 292 302 303 SMYGEC | PhoP, residues 12 14 15 18 19 SQCLL (Escherichia coli, UniProt P23836) | Sort-seq, item: YFP reporter | E. coli | PhoQ-PhoP variant library, added: 10 µM Mg2+ | reference: high Mg2+ state, higher = stronger signaling | fold induction | 1.89
